# Assay results of several laboratories.
# “And” joins repeats or separate records; there may be more than shown. ± marks the error that the study gave.
# IL1RL2: Interleukin-1 receptor-like 2 (IL1RL2, Homo sapiens, UniProt Q9HB29)
# UniProt Q9HB29, sequence (whole entry, looked up): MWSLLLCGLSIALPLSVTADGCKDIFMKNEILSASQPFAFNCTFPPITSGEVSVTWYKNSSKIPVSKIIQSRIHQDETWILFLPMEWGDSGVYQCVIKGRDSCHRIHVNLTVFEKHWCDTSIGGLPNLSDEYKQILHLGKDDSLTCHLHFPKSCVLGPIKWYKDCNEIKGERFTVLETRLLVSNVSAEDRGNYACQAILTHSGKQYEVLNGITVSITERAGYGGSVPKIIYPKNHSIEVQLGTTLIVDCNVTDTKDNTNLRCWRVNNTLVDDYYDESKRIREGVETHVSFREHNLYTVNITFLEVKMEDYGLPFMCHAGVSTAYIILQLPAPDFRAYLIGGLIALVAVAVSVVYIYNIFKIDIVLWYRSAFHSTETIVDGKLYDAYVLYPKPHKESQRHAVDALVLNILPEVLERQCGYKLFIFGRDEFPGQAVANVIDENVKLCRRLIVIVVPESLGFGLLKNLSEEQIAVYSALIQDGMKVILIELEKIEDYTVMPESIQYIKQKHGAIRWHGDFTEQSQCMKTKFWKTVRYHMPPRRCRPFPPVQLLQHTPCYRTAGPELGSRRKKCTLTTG
# Astl: Astacin-like metalloendopeptidase (Astl, Mus musculus, UniProt Q6HA09)
# UniProt Q16539, sequence (whole entry, looked up): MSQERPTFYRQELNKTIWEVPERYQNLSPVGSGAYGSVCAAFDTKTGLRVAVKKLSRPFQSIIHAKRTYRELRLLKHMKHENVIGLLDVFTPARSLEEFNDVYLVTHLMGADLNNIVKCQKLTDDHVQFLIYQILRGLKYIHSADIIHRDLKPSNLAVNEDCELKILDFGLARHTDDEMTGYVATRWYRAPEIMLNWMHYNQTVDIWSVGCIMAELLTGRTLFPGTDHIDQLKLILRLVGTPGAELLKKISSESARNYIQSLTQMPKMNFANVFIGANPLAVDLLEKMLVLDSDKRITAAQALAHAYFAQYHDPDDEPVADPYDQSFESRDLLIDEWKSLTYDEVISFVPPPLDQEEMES
# UniProt Q6HA09, sequence (whole entry, looked up): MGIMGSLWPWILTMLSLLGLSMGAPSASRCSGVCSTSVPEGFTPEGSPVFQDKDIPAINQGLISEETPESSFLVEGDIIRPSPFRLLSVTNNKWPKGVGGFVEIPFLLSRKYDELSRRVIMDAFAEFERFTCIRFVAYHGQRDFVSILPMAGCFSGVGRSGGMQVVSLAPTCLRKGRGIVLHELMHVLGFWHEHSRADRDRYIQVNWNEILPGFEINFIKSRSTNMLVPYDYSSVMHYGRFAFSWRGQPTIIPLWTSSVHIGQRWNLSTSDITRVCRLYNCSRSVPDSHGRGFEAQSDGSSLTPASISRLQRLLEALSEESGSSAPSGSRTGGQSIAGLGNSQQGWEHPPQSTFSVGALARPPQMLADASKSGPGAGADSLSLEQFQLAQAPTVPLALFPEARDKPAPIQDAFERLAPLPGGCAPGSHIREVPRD
# UniProt Q99986, sequence (whole entry, looked up): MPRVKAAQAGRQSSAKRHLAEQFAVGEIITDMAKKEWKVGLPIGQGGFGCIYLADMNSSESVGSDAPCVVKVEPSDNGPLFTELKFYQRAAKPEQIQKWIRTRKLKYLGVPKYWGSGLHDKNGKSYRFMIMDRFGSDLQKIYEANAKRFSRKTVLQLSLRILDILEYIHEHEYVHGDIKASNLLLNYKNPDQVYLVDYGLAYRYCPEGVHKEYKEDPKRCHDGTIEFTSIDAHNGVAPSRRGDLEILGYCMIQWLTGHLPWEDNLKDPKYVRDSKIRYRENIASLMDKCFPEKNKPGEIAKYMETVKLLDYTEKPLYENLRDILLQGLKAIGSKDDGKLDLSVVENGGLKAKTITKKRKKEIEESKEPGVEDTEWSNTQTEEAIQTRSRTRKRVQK
# UniProt O15393, sequence (whole entry, looked up): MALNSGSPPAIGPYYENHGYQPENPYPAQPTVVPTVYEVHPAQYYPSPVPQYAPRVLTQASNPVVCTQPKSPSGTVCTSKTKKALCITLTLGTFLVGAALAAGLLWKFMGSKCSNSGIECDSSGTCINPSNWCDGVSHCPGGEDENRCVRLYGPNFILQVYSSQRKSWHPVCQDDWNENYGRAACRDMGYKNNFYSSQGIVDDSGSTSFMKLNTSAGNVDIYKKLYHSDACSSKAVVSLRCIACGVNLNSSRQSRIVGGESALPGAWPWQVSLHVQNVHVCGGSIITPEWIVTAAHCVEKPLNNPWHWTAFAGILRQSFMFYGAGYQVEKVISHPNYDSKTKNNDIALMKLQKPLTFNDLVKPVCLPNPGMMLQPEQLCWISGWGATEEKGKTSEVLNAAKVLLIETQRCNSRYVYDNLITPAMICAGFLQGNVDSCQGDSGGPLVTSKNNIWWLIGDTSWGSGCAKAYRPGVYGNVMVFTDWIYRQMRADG
# UniProt P45983, sequence (whole entry, looked up): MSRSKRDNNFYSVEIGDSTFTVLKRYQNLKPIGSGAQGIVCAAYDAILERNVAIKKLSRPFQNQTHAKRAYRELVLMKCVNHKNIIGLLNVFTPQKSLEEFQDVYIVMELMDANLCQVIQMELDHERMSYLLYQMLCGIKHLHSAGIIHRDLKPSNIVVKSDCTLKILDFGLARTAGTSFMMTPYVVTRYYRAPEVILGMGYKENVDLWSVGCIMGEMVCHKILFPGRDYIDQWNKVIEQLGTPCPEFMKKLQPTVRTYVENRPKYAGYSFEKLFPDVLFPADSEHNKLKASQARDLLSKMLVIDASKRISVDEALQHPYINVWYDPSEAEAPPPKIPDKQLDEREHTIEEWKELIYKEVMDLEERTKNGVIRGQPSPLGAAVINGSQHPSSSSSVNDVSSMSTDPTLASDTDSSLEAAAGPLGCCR
# UniProt Q6V1X1, sequence (whole entry, looked up): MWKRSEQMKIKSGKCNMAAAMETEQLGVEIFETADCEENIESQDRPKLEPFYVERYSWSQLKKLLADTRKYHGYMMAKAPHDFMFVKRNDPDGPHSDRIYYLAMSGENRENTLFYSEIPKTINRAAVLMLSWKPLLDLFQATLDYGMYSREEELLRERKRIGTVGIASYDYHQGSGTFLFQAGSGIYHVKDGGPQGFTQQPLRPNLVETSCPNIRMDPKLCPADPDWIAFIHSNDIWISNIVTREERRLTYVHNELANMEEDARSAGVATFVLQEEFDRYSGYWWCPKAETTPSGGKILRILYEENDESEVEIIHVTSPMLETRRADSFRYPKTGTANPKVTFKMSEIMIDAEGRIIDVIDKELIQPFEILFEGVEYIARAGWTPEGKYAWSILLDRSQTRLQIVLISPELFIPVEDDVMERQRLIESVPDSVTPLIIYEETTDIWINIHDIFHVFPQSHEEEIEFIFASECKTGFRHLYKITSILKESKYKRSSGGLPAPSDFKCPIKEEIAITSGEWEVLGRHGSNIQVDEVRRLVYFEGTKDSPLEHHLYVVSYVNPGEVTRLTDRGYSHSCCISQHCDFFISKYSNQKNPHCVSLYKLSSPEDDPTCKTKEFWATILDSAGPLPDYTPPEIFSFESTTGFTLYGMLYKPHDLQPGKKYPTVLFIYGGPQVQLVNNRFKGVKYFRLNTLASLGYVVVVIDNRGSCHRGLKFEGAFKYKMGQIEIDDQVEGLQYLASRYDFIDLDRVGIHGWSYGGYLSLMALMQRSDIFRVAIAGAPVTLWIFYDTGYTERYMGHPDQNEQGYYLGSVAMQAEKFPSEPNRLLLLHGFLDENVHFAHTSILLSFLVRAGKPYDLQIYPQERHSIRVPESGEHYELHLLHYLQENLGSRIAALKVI
# UniProt Q14191, sequence (500-946, looked up): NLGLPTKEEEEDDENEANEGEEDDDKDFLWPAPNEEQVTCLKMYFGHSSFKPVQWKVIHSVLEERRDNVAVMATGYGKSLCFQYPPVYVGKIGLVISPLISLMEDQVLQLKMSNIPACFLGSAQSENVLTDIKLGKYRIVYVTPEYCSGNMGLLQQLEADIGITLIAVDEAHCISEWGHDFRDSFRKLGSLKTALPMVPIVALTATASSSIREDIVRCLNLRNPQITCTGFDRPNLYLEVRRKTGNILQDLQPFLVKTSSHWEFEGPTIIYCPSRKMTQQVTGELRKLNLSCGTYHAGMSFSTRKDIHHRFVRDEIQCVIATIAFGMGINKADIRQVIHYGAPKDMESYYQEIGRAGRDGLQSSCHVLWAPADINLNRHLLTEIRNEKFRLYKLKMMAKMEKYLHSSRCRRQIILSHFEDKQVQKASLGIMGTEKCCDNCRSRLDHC
SMILES,tested on,test,test system,setting,how to read,quantity,value
COc1ccccc1-c1ccncc1C(=O)Nc1nnc(OCc2ccc(Cl)cc2)s1,"Bifunctional 3'-5' exonuclease/ATP-dependent helicase WRN, residues 500-946 (WRN, Homo sapiens, UniProt Q14191)","ATPase activity, ADP-Glo",,1.9 µM,reference: 0 µM cpd,remaining activity,96%
CC(C)[C@@H]1NC(=O)[C@H](Cc2ccccc2)NC(=O)CSC[C@@H](C(N)=O)NC(=O)[C@H](CCC(=O)O)NC(=O)[C@H](CO)NC(=O)[C@H](Cc2c[nH]c3cccc(Cl)c23)NC(=O)[C@H](C2CCCCC2)NC(=O)[C@H](C(C)C)NC(=O)[C@H](Cc2ccc(O)cc2)NC(=O)[C@H](CC(=O)O)NC(=O)[C@H](Cc2c[nH]c3ccccc23)NC(=O)[C@H](Cc2ccc(N)nc2)NC(=O)[C@H](Cc2c[nH]c3ccc(Cl)cc23)NC(=O)[C@H](CCC(=O)O)NC1=O,IL1RL2,"IL-8 release, antagonist",A-431,"3.2 µM, 18 h, together with: IL-36γ",reference: untreated,remaining activity,86.2%
O=C(CCN(Cc1cccnc1)Cc1ccc(Cl)c(O)c1F)NO,Astl,"enzyme activity, inhibitor, fluorogenic",,0.25 µM,,remaining activity,75 ± 5%
CCC1(CC)C(=O)N(c2cccc(CN3CCN(C)CC3)c2)C1=O,"Dipeptidyl peptidase 8 (Homo sapiens, UniProt Q6V1X1)","enzyme activity, inhibitor",,5 µM,,remaining activity,81%
Cc1cc(NC(=O)c2cccc(NC(=O)/C(C#N)=C/C(C)(C)C)c2)ccc1Nc1nccc(-c2cccnc2)n1,"Mitogen-activated protein kinase 8, phosphorylated (MAPK8, Homo sapiens, UniProt P45983)","enzyme activity after dialysis, inhibitor",,"10 µM, 5 days, unit not given",reference: no inhibitor,remaining activity,1.1
COC1CN([C@H]2CC[C@H]([C@@]3(C)Oc4c(Cl)cc(C(=O)NCc5c(SC)cc(C)[nH]c5=O)c(C)c4O3)CC2)C1,,"RNA-seq, refers to: BMP2","human, whole blood","dose not given, 24 h",reference: pretreatment baseline,log2 fold change,5.86
COCC12C(=O)NC3C4(C(OC)CC1O)C1CC5(O)C(OC)C(O)C(OC(C)=O)(C1C5OC(=O)c1ccccc1)C3(O)C(OC)C24 (centres unmarked),"Serine/threonine-protein kinase VRK1 (VRK1, Homo sapiens, UniProt Q99986)","kinase activity, inhibitor, ProQinase kinase profiling",,25 µM,reference: control,remaining activity,101% and 109%
O=C(CCN(Cc1ccc(Cl)cc1F)Cc1ccc(Cl)cc1F)NO,Astl,"enzyme activity, inhibitor, fluorogenic",,0.25 µM,,remaining activity,78 ± 6%
N#Cc1cnc2sc(C(=O)O)cc2c1N1CCc2[nH]nc(C(=O)N[C@@H](CC(=O)NCCOCCN3CCOCC3)c3cccc(Br)c3)c2C1,IL1RL2,"SEAP reporter gene, antagonist",HEK-Blue IL-36R cells,"0.046 µM, 6 h, together with: IL-36β 0.003 ng/mL",reference: untreated,remaining activity,103%
O=C(CN(Cc1cccc(C(=O)O)c1)Cc1ccc2c(c1)OCO2)NO,Astl,"enzyme activity, inhibitor, fluorogenic",,0.25 µM,,remaining activity,96 ± 4%
C[C@](C(=O)NC1CCOCC1)(c1cncnc1)N(C(=O)[C@H](F)Cl)c1ccc(OC(F)(F)Cl)cc1,"Transmembrane protease serine 2 (TMPRSS2, Homo sapiens, UniProt O15393)","enzyme activity, inhibitor",,10 µM,,remaining activity,101%
CN(Cc1cc(C2CC2)on1)C(=O)c1cccc(-c2ccc3c(c2)CCO3)c1,acetoacetyl-CoA synthetase (Cryptococcus neoformans),"enzyme activity, inhibitor",,31.3 µM,,remaining activity,104%
COC(=O)CN1CCCc2cc3cc(C(=O)NC(Cc4cccc(Cl)c4)C(=O)NCC=CS(=O)(=O)c4ccccc4)c(=O)oc3cc21 (centres unmarked),"Rhodesain (rhodesain, Trypanosoma brucei rhodesiense, UniProt Q95PM0)","enzyme activity, inhibitor, fluorescence",,5 µM,,remaining activity,31%
O=C(CCN(Cc1cccnc1)Cc1cccnc1)NO,Astl,"enzyme activity, inhibitor, fluorogenic",,0.25 µM,,remaining activity,98 ± 5%
COC(=O)[C@@]1(C)C=C(C(=O)Nc2cccc(C(=O)Nc3ccc(Nc4nccc(-c5cccnc5)n4)c(C)c3)c2)C(=O)CC1,"Mitogen-activated protein kinase 14 (MAPK14, Homo sapiens, UniProt Q16539)","enzyme activity, inhibitor",,"14.81 µM, unit not given",reference: vehicle,remaining activity,0.718 and 0.554 and 0.569
O=C(CCN(Cc1ccc2c(c1)OCO2)Cc1ccc2c(c1)OCO2)NO,Astl,"enzyme activity, inhibitor, fluorogenic",,0.25 µM,,remaining activity,63 ± 5%
COc1cc(Nc2nc(C)cc(-c3cnn4nc(OC)ccc34)n2)cc(C(F)(F)F)c1,"Leucine-rich repeat serine/threonine-protein kinase 2 (LRRK2, Homo sapiens, UniProt Q5S007)",inhibitor,,1 µM,reference: control,remaining activity,100%
